# Measured values gathered from unrelated publications.
# Parts stem from different laboratories: compare values within a part only.

# Block 1
# Target: Histamine H2 receptor (HRH2, Homo sapiens, UniProt P25021)
# UniProt P25021, sequence (whole entry, looked up): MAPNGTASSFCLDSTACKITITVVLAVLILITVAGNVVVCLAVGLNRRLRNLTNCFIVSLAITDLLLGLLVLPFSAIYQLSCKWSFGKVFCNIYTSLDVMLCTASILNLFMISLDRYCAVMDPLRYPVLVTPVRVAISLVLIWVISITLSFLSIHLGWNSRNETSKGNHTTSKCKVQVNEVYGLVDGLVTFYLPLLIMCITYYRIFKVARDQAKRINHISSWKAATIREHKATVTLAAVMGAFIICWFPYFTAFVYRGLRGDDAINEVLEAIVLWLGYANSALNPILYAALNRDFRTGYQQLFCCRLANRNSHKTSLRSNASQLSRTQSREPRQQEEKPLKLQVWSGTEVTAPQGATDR
# Read-out: binding
# Method: radioligand binding
# Concentration: 10 µM
Structure (SMILES),inhibition [%]
CC(C)(O)c1cncc(-c2nc3ccc(F)cc3n2C2CC2)c1,1.75
Cc1nc(N2CC[C@@H](O)C2)ncc1-c1cc(C(F)(F)F)cc2[nH]ncc12,-8.45
COCc1nc2cnc3cc(-c4c(C)noc4C)c(OC[C@H]4CCNC4)cc3c2n1[C@H](C)c1ccccc1,12.3
O=C1CCc2cc(Nc3cc(OC4CCOCC4)c([N+](=O)[O-])cc3Cl)ccc2N1,20.6
Cc1nc(Cc2cccc(C(F)(F)F)c2)sc1-c1ccc(C(N)=O)nc1,6.05

# Block 2
# Target: Sal-like protein 4, full length isoform A (SALL4, Homo sapiens, UniProt Q9UJQ4, residues 1-1053)
# UniProt Q9UJQ4, sequence (whole entry, looked up): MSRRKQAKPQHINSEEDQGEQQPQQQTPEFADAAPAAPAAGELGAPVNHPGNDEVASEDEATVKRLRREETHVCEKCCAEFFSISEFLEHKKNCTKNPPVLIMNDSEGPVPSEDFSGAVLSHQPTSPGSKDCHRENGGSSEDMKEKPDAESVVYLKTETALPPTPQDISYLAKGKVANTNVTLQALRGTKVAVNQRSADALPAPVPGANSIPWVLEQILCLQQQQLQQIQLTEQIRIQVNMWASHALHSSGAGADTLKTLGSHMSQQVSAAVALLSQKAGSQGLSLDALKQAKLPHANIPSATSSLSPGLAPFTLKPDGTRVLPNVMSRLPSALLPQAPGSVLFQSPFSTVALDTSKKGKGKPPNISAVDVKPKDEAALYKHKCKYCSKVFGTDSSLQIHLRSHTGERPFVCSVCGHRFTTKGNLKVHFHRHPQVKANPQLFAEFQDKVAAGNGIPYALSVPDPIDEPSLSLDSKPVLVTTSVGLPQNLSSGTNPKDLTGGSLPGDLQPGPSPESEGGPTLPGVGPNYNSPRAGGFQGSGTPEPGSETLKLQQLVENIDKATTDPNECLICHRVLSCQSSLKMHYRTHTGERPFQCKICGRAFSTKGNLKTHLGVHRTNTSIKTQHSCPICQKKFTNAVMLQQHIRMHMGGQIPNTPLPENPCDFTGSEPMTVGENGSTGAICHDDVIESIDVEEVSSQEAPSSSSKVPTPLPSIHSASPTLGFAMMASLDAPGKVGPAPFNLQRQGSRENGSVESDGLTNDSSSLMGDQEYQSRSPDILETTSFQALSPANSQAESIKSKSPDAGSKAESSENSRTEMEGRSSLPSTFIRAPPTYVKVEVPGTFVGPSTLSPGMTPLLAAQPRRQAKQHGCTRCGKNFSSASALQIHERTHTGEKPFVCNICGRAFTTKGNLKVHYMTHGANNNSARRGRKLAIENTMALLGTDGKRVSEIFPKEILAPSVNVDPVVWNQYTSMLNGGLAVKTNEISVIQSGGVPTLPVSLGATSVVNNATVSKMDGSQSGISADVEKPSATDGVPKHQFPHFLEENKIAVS
# Method: universal PBM
# Form: double-stranded DNA, one strand shown
# Sample: in vitro
# Concentration: 600 nM
# Notes: 8-mer, flanks averaged, mean of replicates
# Reading: higher = stronger binding
Sequence,E-score
GTAAGCAA,0.124
GTGTCTAA,0.169
TGTTCAAA,0.166
TCCTCAGA,0.0369
TATACGCA,0.161
ATGACAAA,0.26
CCTGATAG,-0.137
GCATGTAA,0.122

# Block 3
# Target: Protein kinase C theta type (PRKCQ, Homo sapiens, UniProt Q04759)
# UniProt Q04759, sequence (whole entry, looked up): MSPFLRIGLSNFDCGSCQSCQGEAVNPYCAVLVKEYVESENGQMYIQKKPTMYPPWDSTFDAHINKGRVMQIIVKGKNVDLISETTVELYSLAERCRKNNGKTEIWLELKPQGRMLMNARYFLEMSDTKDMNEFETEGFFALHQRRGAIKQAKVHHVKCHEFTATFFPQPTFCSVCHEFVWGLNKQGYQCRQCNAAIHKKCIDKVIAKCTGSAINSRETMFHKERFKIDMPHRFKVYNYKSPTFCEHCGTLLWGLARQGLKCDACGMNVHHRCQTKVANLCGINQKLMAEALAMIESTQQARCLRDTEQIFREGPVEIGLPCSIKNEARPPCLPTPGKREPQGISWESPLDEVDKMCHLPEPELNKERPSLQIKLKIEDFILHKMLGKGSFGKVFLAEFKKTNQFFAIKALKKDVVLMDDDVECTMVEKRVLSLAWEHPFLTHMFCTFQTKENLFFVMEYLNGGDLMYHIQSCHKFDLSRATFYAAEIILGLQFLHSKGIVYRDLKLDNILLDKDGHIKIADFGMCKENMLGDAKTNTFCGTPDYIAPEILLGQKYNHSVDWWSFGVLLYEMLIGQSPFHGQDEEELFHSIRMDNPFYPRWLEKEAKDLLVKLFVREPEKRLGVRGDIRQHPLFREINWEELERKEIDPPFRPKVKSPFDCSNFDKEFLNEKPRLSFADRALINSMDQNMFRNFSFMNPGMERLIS
# Read-out: enzyme activity
# Action: inhibitor
# Concentration: 0.5 µM
# Relative to: control
Structure (SMILES),remaining activity
COc1cc2ncnc(Nc3ccc(F)c(Cl)c3)c2cc1OCCCN1CCOCC1,85.9%
Cc1nc(-c2ccccc2)c(-c2ccncc2)o1,120%
CC(C)[C@H](CO)Nc1nc(Nc2cc(N)cc(Cl)c2)c2ncn(C(C)C)c2n1,119%
Nc1[nH]nc2nc3ccccc3nc12,89.7%
C#Cc1cccc(Nc2ncnc3cc(OCCOC)c(OCCOC)cc23)c1,77.2%
CCOC(=O)c1c(C)[nH]c(/C=C2\C(=O)Nc3ccccc32)c1C,116%
CNC(=O)c1cc(Oc2ccc(NC(=O)Nc3ccc(Cl)c(C(F)(F)F)c3)cc2)ccn1,100%
N#CC(C#N)=C(N)/C(C#N)=C/c1ccc(O)cc1,99.8%
OCC(O)CCON=C1C(c2c(O)[nH]c3ccccc23)=Nc2ccccc21 (stereo not drawn),92.9%
CO[C@H]1C[C@@H]2CC[C@@H](C)[C@@](O)(O2)C(=O)C(=O)N2CCCC[C@H]2C(=O)O[C@H]([C@H](C)C[C@@H]2CC[C@@H](O)[C@H](OC)C2)CC(=O)[C@H](C)/C=C(\C)[C@@H](O)[C@@H](OC)C(=O)[C@H](C)C[C@H](C)/C=C/C=C/C=C/1C,126%
O=C(CCCc1ccc(-c2ccccc2F)cc1)Nc1ccc(O)cc1,107%
Cc1cccc(-c2[nH]c(C(C)(C)C)nc2-c2ccc3c(c2)OCO3)n1,107%
O=S(=O)(c1cccc2cnccc12)N1CCCNCC1,89.9%
COc1ccc(OC)c2c(=S)c3ccccc3[nH]c12,98.9%
COc1cc2ncnc(Nc3ccc(Oc4ccccc4)cc3)c2cc1OC,124%

# Block 4
# Target: Ras GTPase-activating protein-binding protein 1, C-terminal RGG region (G3BP1, Homo sapiens, UniProt Q13283)
# UniProt Q13283, sequence (whole entry, looked up): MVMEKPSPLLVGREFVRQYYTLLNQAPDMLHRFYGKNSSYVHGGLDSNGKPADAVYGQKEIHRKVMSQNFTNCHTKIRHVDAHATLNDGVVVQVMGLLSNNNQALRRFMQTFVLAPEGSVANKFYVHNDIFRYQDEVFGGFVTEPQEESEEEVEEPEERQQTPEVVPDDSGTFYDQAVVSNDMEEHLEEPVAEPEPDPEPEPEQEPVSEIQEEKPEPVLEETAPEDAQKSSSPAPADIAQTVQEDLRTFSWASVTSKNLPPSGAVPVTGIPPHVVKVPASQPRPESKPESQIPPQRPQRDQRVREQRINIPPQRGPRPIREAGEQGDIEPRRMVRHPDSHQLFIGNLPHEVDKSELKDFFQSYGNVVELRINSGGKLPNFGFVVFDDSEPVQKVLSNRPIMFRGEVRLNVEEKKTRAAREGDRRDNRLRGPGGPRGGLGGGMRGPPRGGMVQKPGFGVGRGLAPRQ
# Method: RNA Bind-n-Seq
# Form: RNA
# Sample: in vitro
# Concentration: 1 µM
# Notes: whole 134-nt RNA, ends assumed
# Together with: 150 mM KCl
# Relative to: input library
# Reading: higher = stronger binding
# Constant ends, left off below: GGGAGUUCUACAGUCCGACGAUC … UGGAAUUCUCGGGUGUCAAGG
Sequence,log2 enrichment
AUUUGUACACAGACAGGGAAACUGGCAAGCUGAAGGGAGAGGCAACGGUCUCUUUUGAUGACCCACCUUCAGCUAAAGCAGCUAUUGACU,-0.59
GUCCUGUGCUACACAUCGUAUGUACCGAAUCGGCCCCCGGGGCCCCCGGGGCCCCCGGGAAAGUAUUAUGUUACGCCGUUCGGAUCUGCA,-1.68
ACCAUGCAGGUGGGCAUCUUUGGGAAGUGGGGCAAGGGGGGGAUAGGGAGGGGGGUAACACUUUGGGAACAGGUGGUCCCAGGCCGUUUC,1.61
GCAGGAAGUAAAAACAAAUGGAAAUGCUUCGGAUAGUGGCAGGGGUGGGGGUUGCUAAGGAAAGGGUGGGAUGGGAGUGGGUAAAGAGUG,1.62
UCCUGUGCUACACAUCGUAUGUACCGAAUCGGGGAAAAAAAGGGGUUUGGGGAAAGGGGAAAGUAUUAUGUUACGCCGUUCGGAUCUGCA,2.88
UGUGCUACACAUCGUAUGUACCGAAUCGGGCCCCCCCGGGCCCCCCCGGGGCCCCCCCGGGGAAAGUAUUAUGUUACGCCGUUCGGAUCU,-2.69
CAAGUCCUGUGCUACACAUCGUAUGUACCGAAUCGGUUUUGGGUUUUGGUUUUGGGAAAGUAUUAUGUUACGCCGUUCGGAUCUGCACUU,-1.6
UCAAGUCCUGUGCUACACAUCGUAUGUACCGAAUCGGGGCCGGGGCCGGGCCGGGAAAGUAUUAUGUUACGCCGUUCGGAUCUGCACUUC,-0.815

# Repeated from above (block 4):
Sequence,log2 enrichment
GCAGGAAGUAAAAACAAAUGGAAAUGCUUCGGAUAGUGGCAGGGGUGGGGGUUGCUAAGGAAAGGGUGGGAUGGGAGUGGGUAAAGAGUG,1.62
UCCUGUGCUACACAUCGUAUGUACCGAAUCGGGGAAAAAAAGGGGUUUGGGGAAAGGGGAAAGUAUUAUGUUACGCCGUUCGGAUCUGCA,2.88
UGUGCUACACAUCGUAUGUACCGAAUCGGGCCCCCCCGGGCCCCCCCGGGGCCCCCCCGGGGAAAGUAUUAUGUUACGCCGUUCGGAUCU,-2.69
CAAGUCCUGUGCUACACAUCGUAUGUACCGAAUCGGUUUUGGGUUUUGGUUUUGGGAAAGUAUUAUGUUACGCCGUUCGGAUCUGCACUU,-1.6
UCAAGUCCUGUGCUACACAUCGUAUGUACCGAAUCGGGGCCGGGGCCGGGCCGGGAAAGUAUUAUGUUACGCCGUUCGGAUCUGCACUUC,-0.815
